Measured values pooled from the literature.
Each line is one published result; not all experiments were run side by side. ± marks the error that the study gave.

Compound	tested on	assay	test system	setting	how to read	endpoint	result
CCCCCCCCC=CCCCCCCCC(=O)OCC1OC(n2ccc(N)nc2=O)C(F)(F)C1O (stereo not shown)	MOLT-4	cell growth or viability				IC50	0.028 µM
N=C(N)NCCC[C@@H]1NC(=O)[C@H](Cc2c[nH]c3ccccc23)NC(=O)[C@@H](CC2CCCCC2)NC(=O)[C@@H]2CCCN2C(=O)[C@@H](NC(=O)CCc2ccccc2)CCCNC1=O			C57BL/6J mice, brain	intraperitoneal, 1 mg/kg, two-compartment model		redistribution rate constant k21	0.87 h⁻¹
Cc1cc(N)c2cc(NC(=O)Nc3ccc4nc(C)cc(N)c4c3)ccc2n1	CHO wild type	FGF2 binding to heparan sulfate, inhibitor, flow cytometry		on ice, with: biotinylated FGF2 2.5 nM		IC50	1.6 ± 0.04 µM
O=Cc1c(O)ccc2ccccc12	HUVEC	RNA sequencing, refers to: CAV1		75 µM, 24 h	relative to: DMSO	log2 fold change	-2.93
CCCCCCCCCCCCCCn1c(-c2cccnc2)nc(-c2ccc(C)cc2)c1-c1ccc(C)cc1	L929	cell growth or viability, SRB				IC50	347 µM
COc1ccc(CC[C@H]2OC(=O)[C@@H]3CCCCN3C(=O)C(=O)C(C)(C)COC(=O)/C=C/CCN(C)C(=O)[C@H](CC(C)C)N(C)C(=O)[C@@H]3CCCN3C(=O)[C@H](Cc3ccccc3)N(C)C(=O)[C@H](c3ccccc3)NC(=O)CCC(=O)Nc3cccc2c3)cc1OC	human erythrocytes	adenosine uptake, inhibitor		with: [3H]-adenosine		IC50	0.045 µM
N=C(N/N=C/c1ccc2ccccc2c1)N/N=C/c1ccc2ccccc2c1	KP-4	cell growth or viability, crystal violet		72 h		IC50	122 µM
CN1CCN(C(=O)c2ccc(-c3ccc4c(c3)/C(=C/c3ccc(N5CCOCC5)cc3)C(=O)N4)cc2)CC1	NIH3T3	cell growth or viability, WST-1		48 h		IC50	2.75 µM
COc1ccc2cc3[n+](cc2c1OCc1cn(Cc2ccccc2)nn1)CCc1cc2c(cc1-3)OCO2	SW1990	cell growth or viability, MTT				IC50	28.6 µM
CC1(C)Cc2c(-c3ccccc3)c(-c3ccc(Cl)cc3)c(CC(=O)O)n2C1	human Macrophage	PGE2 release, inhibitor		24 h, LPS-stimulated		IC50	0.56 µM
Cc1cc(C=O)cc(C)c1Oc1cc(Nc2ccc(C#N)cc2)nc2ccncc12	HuCC-A1			48 h		IC50	103 ± 5.4 µM
O=C(/C=C/c1coc2ccccc2c1=O)N1CCN(C(=S)SCc2ccccc2)CC1	tomato spotted wilt virus	viral infection, half-leaf method	Nicotiana glutinosa	500 µg/mL		protective effect	47.2 ± 5.8%
CC(C)C1OC(=O)C(NC(=O)c2cccc(O)c2)C(C)OC(=O)C(C(C)C)OC(=O)C(C)(C)C(=O)C(Cc2ccccc2)OC1=O (stereo not shown)	HCT-8/T taxol-resistant	cell viability, CCK-8		72 h		IC50	> 20 µM
CC(=O)O[C@@H]1CC[C@@]2(C)[C@@H](CC[C@]3(C)[C@@H]2C(=O)C=C2[C@@H]4[C@@H](C)[C@H](C)CC[C@]4(C)CC[C@]23C)[C@@]1(C)C(=O)NCCNC(=O)CCCCCCCBr	HBE	cell growth or viability, MTT		48 h		IC50	22.5 µM
COc1ccc(CN2C[C@H](O)[C@H](O)[C@@H]2CO)cc1	U2OS	cell growth or viability, MTS		72 h		IC50	200 µM
[Cl][Au].[Se]=c1n(C23CC4CC(CC(C4)C2)C3)ccn1C12CC3CC(CC(C3)C1)C2	LoVo	cell growth or viability, MTT		72 h		IC50	3.5 µM
CC(=O)Oc1ccccc1C(=O)[O][Pt]([NH2])([NH2])([Cl])([Cl])[O]C(=O)CCCc1ccccc1	LoVo	cell growth or viability, MTT		72 h		IC50	0.055 µM
[64Cu+2].c1ccc(CNCc2ccc(CN3CCCN4CCNCCCN(CC4)CC3)cc2)nc1	CXCR4		NOD/SCID mouse, U87 and U87-stb-CXCR4 xenografts, heart	iv, 90 min, no blocking dose, ex vivo		tissue uptake	1.49 ± 0.16 %ID/g
C=C[CH2][Pd-]([Cl])[Cl].CC(C)c1cccc(C(C)C)c1-n1c[n+](-c2c(C(C)C)cccc2C(C)C)c2c1-c1cccc3cccc-2c13	2008	cell growth, MTT		72 h		IC50	5.5 ± 0.3 µM
C=C1C(=O)C23CCC4C(C)(C)CCCC4(C)C2C(O)CC1C3 (single isomer, unassigned)	HBE	cell growth or viability, MTT				IC50	5.1 µM
CCCCCCCC(=O)NCCNC(=O)[C@@]1(C)[C@H](O)CC[C@@]2(C)[C@H]1CC[C@]1(C)[C@@H]2C(=O)C=C2[C@@H]3[C@@H](C)[C@H](C)CC[C@]3(C)CC[C@]21C	HBE	cell growth or viability, MTT		48 h		IC50	8.28 µM
Cc1cnc(Nc2cc(C)c(C)c(C)c2)nc1Nc1ccc2oc(=O)[nH]c2c1	human T cells	STAT5 phosphorylation, flow cytometry		with: IL-2		IC50	0.0178 µM
COc1ccc(C2CC(c3ccc(C)cc3)=Nc3ccccc3S2)cc1OC (stereo not shown)			Wistar rat, STZ-induced diabetes	oral, 20 mg/kg once daily, day 14		body weight	180 ± 4.62 g
COC(=O)[C@@H]1[C@@H](OC)[C@H](OC(=O)c2cc(OC)c(OC)c(OC)c2)C[C@@H]2CN3CC[C@]4(O[C@@H]3C(=O)[C@@H]21)C(=O)Nc1cc(OC)ccc14	RS4-11	cell growth or viability, trypan blue		72 h		IC50	2.97 µM
CCN(CC)CCSC(=S)N1CCN(C(=O)/C=C/c2coc3cc(OC)ccc3c2=O)CC1	tomato spotted wilt virus	viral infection, half-leaf method	Nicotiana glutinosa	500 µg/mL		protective effect	53.7 ± 2.3%

Excerpt of the above:
Compound	tested on	assay	test system	setting	how to read	endpoint	result
CC(C)C1OC(=O)C(NC(=O)c2cccc(O)c2)C(C)OC(=O)C(C(C)C)OC(=O)C(C)(C)C(=O)C(Cc2ccccc2)OC1=O (stereo not shown)	HCT-8/T taxol-resistant	cell viability, CCK-8		72 h		IC50	> 20 µM
CC(=O)O[C@@H]1CC[C@@]2(C)[C@@H](CC[C@]3(C)[C@@H]2C(=O)C=C2[C@@H]4[C@@H](C)[C@H](C)CC[C@]4(C)CC[C@]23C)[C@@]1(C)C(=O)NCCNC(=O)CCCCCCCBr	HBE	cell growth or viability, MTT		48 h		IC50	22.5 µM
COc1ccc(CN2C[C@H](O)[C@H](O)[C@@H]2CO)cc1	U2OS	cell growth or viability, MTS		72 h		IC50	200 µM
